Measurements from different studies.
A part holds a random share of what one study measured. Substitutions count along the parent as printed.

Series 1
Target: Interferon regulatory factor 3, full length, phosphomimetic (IRF3, Homo sapiens, UniProt Q14653, residues 1-427, S386D/S396D/S398D/S402D/T404D/S405D)
Method: protein-binding microarray
Molecule type: double-stranded DNA, one strand shown
Sample: in vitro
Tested at: 2540 nM top
Notes: 60-bp whole probe
Together with: salmon DNA 0.4 mg/ml
Relative to: random background probes
Reading: higher = stronger binding
Shared flanks, not repeated: GCCTAGCAC … GTCTTGATTCGCTTGACGCTGCTG
Target sequence (chain): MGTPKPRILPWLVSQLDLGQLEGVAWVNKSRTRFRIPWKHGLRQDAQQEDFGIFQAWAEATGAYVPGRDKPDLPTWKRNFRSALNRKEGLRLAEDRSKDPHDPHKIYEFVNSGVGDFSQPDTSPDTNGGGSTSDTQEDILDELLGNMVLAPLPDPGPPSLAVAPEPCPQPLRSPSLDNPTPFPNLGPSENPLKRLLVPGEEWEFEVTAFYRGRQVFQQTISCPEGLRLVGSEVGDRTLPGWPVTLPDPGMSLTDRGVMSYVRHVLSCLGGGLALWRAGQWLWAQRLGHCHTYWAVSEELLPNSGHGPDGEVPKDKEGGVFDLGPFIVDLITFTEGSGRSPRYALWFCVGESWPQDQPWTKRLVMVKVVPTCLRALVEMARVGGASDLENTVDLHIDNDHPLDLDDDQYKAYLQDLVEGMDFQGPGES
| Strand | fitted relative affinity [z-score] |
| --- | --- |
| TCAATTACCTCATCTTTCACTGTGCTA | 0.858 |
| GTCGGTATCCTACTGCTGACGTGCTAG | 4.09 |
| TTTTTGTTGTTTTTTGGTTTGTGCTAG | 2.08 |
| GACGACCTGGGGTTTCGAGACGTGCTA | -0.0225 |
| TCATATTTACTCTCTACAACTGTGCTA | 0.922 |
| TACTCTCTCCATGTGTTTAAGTGCTAG | 0.513 |
| GACGAAGTGAGTTTCGAGACGTGCTAG | 1.17 |
| GAAGATCTCAGTCTCGAGACGTGCTAG | 0.352 |

Series 2
Target: HLA class I histocompatibility antigen, A alpha chain, allele A*80:01 (Homo sapiens, UniProt P04439)
Read-out: peptide-MHC binding
Molecule type: peptide
Tested at: concentration not given
| Sequence | binding |
| --- | --- |
| KKNHWFILK | inactive |
| VILYFMYRK | inactive |
| AVDWYQQRI | inactive |
| KFRDMITFR | inactive |
| NHYLCLNCL | inactive |
| SPVMGVIGF | inactive |
| LPPVVPPLI | inactive |
| RTRPRWIPA | inactive |
| MHDPHSIPL | inactive |
| SLFNWLWYE | inactive |
| HAAVRRNAF | inactive |
| IEAKINVAD | inactive |
| GFAIPIILK | inactive |
| FLILPQAKK | inactive |
| VVEKQSGLY | active |
| TEDDWITYI | inactive |
| MTPGRGLSK | inactive |
| QAHMGIAGL | inactive |
| GVRQFSGWM | inactive |
| YQAENSTAE | inactive |
| ALRRRTGTR | inactive |
| HSDDALFIY | inactive |
| DMYFCHFYK | inactive |
| IMANRAQVL | inactive |
| KVGYFQHGA | inactive |

Series 3
Target: RNA binding protein fox-1 homolog 2, RRM domain, GST-SBP tag (RBFOX2, Homo sapiens, UniProt O43251-10, residues 100-194)
Method: RNA Bind-n-Seq
Molecule type: RNA
Sample: in vitro
Tested at: 365 nM
Notes: natural RNA segment, single round, ends assumed
Relative to: no-protein control
Reading: higher = stronger binding
Shared flanks, not repeated: GGGAGUUCUACAGUCCGACGAUC … UGGAAUUCUCGGGUGCCAA
Construct (chain): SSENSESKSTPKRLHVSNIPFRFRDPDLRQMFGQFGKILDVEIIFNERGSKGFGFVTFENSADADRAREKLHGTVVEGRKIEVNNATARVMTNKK
| Strand | RBNS enrichment (R) |
| --- | --- |
| UGAAGGGGAUACGCUGGAGUUGCCCUGCCAUCGCCUCCAUCAGCCAGACGAGGUCCUCACAGGAGAAGGACAGCUCUUCCCCACCCUGGGAUCUCAGGAGGGCAGCCACG | 0.404 |
| UUUAUGGAUAGAGGAAAAGCUGGUGGAGAAUAGAAGGACGAAAUAUUCUAGAAGAUGGGUCAGGGUGCAGGAAGUCACAUGCCCUCAAGAAGUAUGAGAGUUGGGCUAUG | 1.87 |
| CUCCUCUGGGUCACAUUGCUUCUUAUCCUGAACACUUGACACCUUGAGGGUAGAAUUUAGCGUUUGGUUUUUACCUCCUAGCAUAUGCUGUUUGGUAUGUGAGGGUUUCA | 0.261 |
| ACUGCCUUGCUUUCCCCGGUUCUUUCCCCUGCUAGCACCUGCUUUCUCAUCCCUAUCUCCAGUCAAAGAUGGGAUUGCUUAAUCCAACUCUGGAGAGGGACCAAGUCUUU | 0.815 |
| UCCUGUCCCUUGGUUCAGGAAAGUAGCUUGGAAAAGGAGUAGGGGUAUAGCUUGGGUCCCUUUUCCUGCAAGGCCCCAUGGGGCAGAAUAUAAUAAAUAUUCUGAGUGAG | 1.55 |
| UCAGUGCUAAUCAUUGUUUUUUCCUUUGUAAAUGUUGAUUCAGAAAAGGAAAGCACAGGCUAAGCAGUUGAAGGUUCCCCACCAUUCAGUGAGAGCAGAACCCCCAUUCC | 0.273 |
| GCCCCAGCCCCACCUGACUCCAGCACACCUGGCGAGUAGUAGCUGUCAAUAAAUCUAUGGUAAACAGCAAGAGGUUAGUAAGUAUUCUUUUAUUGUGACAAACCCUCUCC | 0.74 |
| CCCGCUAACUUCAGCCUCUCAUCUGCUGCUCCGGGCUGAGGGACUAGAGGACAUCUCGGUCGUUUGAGGGGCAUGGCCAGUCGUGGCAGGCCGGCCUUCAGCGUCCGGUC | 0.518 |

Series 4
Target: CCNE1, cyclin fold, Cln2 fusion (human)
Method: yeast growth competition, sequencing
Sample: yeast
Notes: strong parent motif
Relative to: not given
Reading: higher = stronger binding
Parent: viral docking peptide; KKAKRRLFTISDS
| Variant | normalised enrichment score |
| --- | --- |
| S11A | 3.73 |
| S13A | 3.31 |
| R6A | 2.73 |
| R5A | 1.54 |
| R5A L7A | -0.216 |
| D12A | 1.23 |

Series 5
Target: UBE2D4 UBC core domain (UniProt Q9Y2X8)
Method: yeast two-hybrid
Sample: yeast
Notes: mostly zero background
Relative to: not given
Reading: higher = stronger interaction
B1: TRIM5 RING domain (UniProt Q9C035); chain LREVKLSPEGQKVDHCARHGEKLLLFCQEDGKVICWLCERSQEHRGHHTFLTEEVAREYQVKL
B2: TRIM13 RING domain (UniProt O60858); chain MELLEEDLTCPICCSLFDDPRVLPCSHNFCKKCLEGILEGSVRNSLWRPAPFKCPTCRKETSATGINS
B3: RNF111 RING domain (UniProt Q6ZNA4); chain EGTEEDTEEKCTICLSILEEGEDVRRLPCMHLFHQVCVDQWLITNKKCPICRVDIEAQLPSE
B4: VPS41 RING domain (UniProt P49754); chain KGVLVDEENICESCLSPILPSDAAKPFSVVVFHCRHMFHKECLPMPSMNSAAQFCNICSAKNRGPGSAI
B5: TRIM4 RING domain (UniProt Q9C037); chain EAEDIQEELTCPICLDYFQDPVSIECGHNFCRGCLHRNWAPGGGPFPCPECRHPSAPAALRP
B6: SH3RF2 RING domain (UniProt Q8TEC5); chain DDLTLLDLLECPVCFEKLDVTAKVLPCQHTFCKPCLQRVFKAHKELRCPECRTPVFSNIEAL
B7: TRIM24 RING domain (UniProt O15164); chain EAARLNLLDTCAVCHQNIQSRAPKLLPCLHSFCQRCLPAPQRYLMLPAPMLGSAETPPPVPAPGSPVSGSSPFATQVGVIRCPVCSQECAERHII
B8: RC3H1 RING domain (UniProt Q5TC82); chain QAPQWTDFLSCPICTQTFDETIRKPISLGCGHTVCKMCLNKLHRKACPFDQTTINTDIELL
Construct (chain): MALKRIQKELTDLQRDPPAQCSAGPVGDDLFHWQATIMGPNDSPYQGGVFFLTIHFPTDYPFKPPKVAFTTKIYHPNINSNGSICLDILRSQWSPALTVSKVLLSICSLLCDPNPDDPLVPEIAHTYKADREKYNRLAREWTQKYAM
| Sequence | lacZ reporter activity |
| --- | --- |
| B1 (TRIM5 RING domain) | 0 |
| B2 (TRIM13 RING domain) | 0 |
| B3 (RNF111 RING domain) | 15100 |
| B4 (VPS41 RING domain) | 0 |
| B5 (TRIM4 RING domain) | 0 |
| B6 (SH3RF2 RING domain) | 0 |
| MPIRALCTICSDFFDHSRDVAAIHCGHTFHLQCLIQWFETAPSRTCPQCRIQVGKRTIIN (TRAIP RING domain (UniProt Q9BWF2)) | 0 |
| B7 (TRIM24 RING domain) | 0 |
| B8 (RC3H1 RING domain) | 0 |

A few entries again (series 4):
| Variant | normalised enrichment score |
| --- | --- |
| S11A | 3.73 |
| S13A | 3.31 |
| R6A | 2.73 |
| R5A | 1.54 |
| R5A L7A | -0.216 |
| D12A | 1.23 |
